Measurements from different studies.
Each numbered part is a random draw from the data of one study; scales do not carry over between parts.

Block 1 — method: protein binding microarray; form: double-stranded DNA, one strand shown; medium: in vitro; tested at: not given; baseline: not given; direction: higher = stronger binding; measurement: E-score
Target: Histone acetyltransferase KAT6A, winged helix 1, GST fusion (KAT6A, Homo sapiens, UniProt Q92794, residues 1-85)
Notes: 8-mer, flanks averaged, mean of 2 arrays, mostly near background
Residues (chain): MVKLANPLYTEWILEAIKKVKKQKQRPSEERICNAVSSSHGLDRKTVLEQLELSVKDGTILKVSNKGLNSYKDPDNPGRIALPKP
Oligonucleotide = ACTAAGGG; value = -0.0306
Oligonucleotide = ATCGCTGA; value = 0.0117
Oligonucleotide = AAGCAGTA; value = -0.0375
Oligonucleotide = TAAATGAA; value = -0.252

Block 2 — method: universal PBM; form: double-stranded DNA, one strand shown; medium: in vitro; tested at: 600 nM; direction: higher = stronger binding; measurement: E-score
Target: Sal-like protein 4, full length isoform A (SALL4, Homo sapiens, UniProt Q9UJQ4, residues 1-1053)
Sequence of UniProt Q9UJQ4 (whole entry, looked up): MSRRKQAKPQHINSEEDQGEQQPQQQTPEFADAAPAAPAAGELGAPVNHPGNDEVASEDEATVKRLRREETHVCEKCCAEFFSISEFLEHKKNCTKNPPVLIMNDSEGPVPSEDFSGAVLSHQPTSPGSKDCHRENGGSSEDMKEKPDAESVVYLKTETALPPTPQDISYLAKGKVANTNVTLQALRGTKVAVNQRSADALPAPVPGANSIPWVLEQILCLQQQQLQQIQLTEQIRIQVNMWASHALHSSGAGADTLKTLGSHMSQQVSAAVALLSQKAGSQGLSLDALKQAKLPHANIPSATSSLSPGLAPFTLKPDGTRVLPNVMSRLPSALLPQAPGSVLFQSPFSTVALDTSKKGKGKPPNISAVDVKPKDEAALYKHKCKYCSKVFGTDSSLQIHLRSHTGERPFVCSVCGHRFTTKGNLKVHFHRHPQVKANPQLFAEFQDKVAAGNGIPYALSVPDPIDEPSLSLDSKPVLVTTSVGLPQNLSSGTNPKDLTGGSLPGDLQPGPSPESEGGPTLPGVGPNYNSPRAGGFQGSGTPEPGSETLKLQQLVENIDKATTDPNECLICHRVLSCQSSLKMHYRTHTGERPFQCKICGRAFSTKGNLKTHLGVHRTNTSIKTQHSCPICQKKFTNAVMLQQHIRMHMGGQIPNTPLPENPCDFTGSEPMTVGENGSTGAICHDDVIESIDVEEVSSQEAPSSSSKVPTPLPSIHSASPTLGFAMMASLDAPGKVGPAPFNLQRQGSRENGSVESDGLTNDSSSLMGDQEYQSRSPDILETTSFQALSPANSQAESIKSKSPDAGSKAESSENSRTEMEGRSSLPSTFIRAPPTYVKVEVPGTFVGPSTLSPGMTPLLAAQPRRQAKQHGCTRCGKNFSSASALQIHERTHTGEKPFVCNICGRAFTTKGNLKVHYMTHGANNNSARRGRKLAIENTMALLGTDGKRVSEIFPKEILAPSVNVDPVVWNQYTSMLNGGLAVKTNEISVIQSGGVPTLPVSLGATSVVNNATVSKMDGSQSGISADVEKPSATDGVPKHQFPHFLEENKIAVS
Notes: 8-mer, flanks averaged, mean of replicates
Oligonucleotide = AAGCGCAC; value = -0.139
Oligonucleotide = AAAAAACC; value = 0.113
Oligonucleotide = CCAGTTTC; value = -0.263
Oligonucleotide = AGGGGGCG; value = -0.202
Oligonucleotide = AATAACCC; value = 0.208

Single results of other studies
UNK zinc fingers 1-6, SBP tag: RING finger protein unkempt homolog, zinc fingers 1-6, SBP tag (UNK, Homo sapiens, UniProt Q9C0B0, residues 30-357)
Sequence of UniProt Q9C0B0 (30-357, looked up): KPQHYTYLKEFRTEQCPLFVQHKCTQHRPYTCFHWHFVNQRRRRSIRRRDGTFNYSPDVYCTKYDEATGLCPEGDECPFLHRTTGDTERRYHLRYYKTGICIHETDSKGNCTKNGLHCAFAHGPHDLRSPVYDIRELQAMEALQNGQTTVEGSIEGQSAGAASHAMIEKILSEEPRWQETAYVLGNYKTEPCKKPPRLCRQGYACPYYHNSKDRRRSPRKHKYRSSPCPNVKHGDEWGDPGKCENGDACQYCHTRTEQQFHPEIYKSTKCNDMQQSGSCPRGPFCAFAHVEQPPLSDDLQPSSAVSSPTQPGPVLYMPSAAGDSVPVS
Molecule = GGGAGUUCUACAGUCCGACGAUCGAAGCAGAAAGCGAGAGUUAAAGGAGGUGUUUGGUGAUGACUCUGAGAUCUCAAAGGAAUCAUCGGGGGUAAAGAAGCGGCGGAUACCCCGUUUUGAGGAGGUAGAAGAGGAGCCAGAGGCAACAGAGGAUUGAGCAUCA; target = RING finger protein unkempt homolog, zinc fingers 1-6, GST-SBP tag (UNK, Homo sapiens, UniProt Q9C0B0, residues 30-357); test = RNA Bind-n-Seq; test system = RNA, in vitro; conditions = not given, RNA with constant flanks, human and mouse sites, ends assumed; scale = baseline: input RNA pool, higher = stronger binding; measurement = bound/input enrichment; value = 0.468 ratio
Molecule = PhoQ, residues 284 288 289 292 302 303 TVTVVA; target = PhoP, residues 12 14 15 18 19 DLLYY (Escherichia coli, UniProt P23836); test = Sort-seq, item: YFP reporter; test system = E. coli; conditions = PhoQ-PhoP variant library, with: 10 µM Mg2+; scale = baseline: high Mg2+ state, higher = stronger signaling; measurement = fold induction; value = 0.834
Molecule = GGGAGUUCUACAGUCCGACGAUCGAUCCUCCCCGUUACCCCUAAAGUAGAACUUACCAAAAUUGUGUGCCUGCCACACAGUUUUAACAAUAUUAGAAGAAAAUGCUAAUGAAGUUACACUCAUUGUUUGGCAAACCAAAUAGUCAACAGAGGAUUGAGCAUCA; target = UNK zinc fingers 1-6, SBP tag; test = RNA Bind-n-Seq; test system = RNA, in vitro; conditions = 100 nM, RNA with constant flanks, vertebrate orthologous sites, ends assumed; scale = baseline: input RNA pool, higher = stronger binding; measurement = bound/input enrichment; value = 1.48 ratio
Molecule = GGGAGUUCUACAGUCCGACGAUCCCUUUCAGACUGUCCCCGGCCAGAGCCAAGGACCUCACUUGUUUCAUCAAGAACCUGCAUUUAAAACAACUUUUUAAACUGUUAAAACAGGAAGAGAUGUGACUAAAACACCACCUCAAACAACAGAGGAUUGAGCAUCA; target = UNK zinc fingers 1-6, SBP tag; test = RNA Bind-n-Seq; test system = RNA, in vitro; conditions = 100 nM, RNA with constant flanks, vertebrate orthologous sites, ends assumed; scale = baseline: input RNA pool, higher = stronger binding; measurement = bound/input enrichment; value = 0.212 ratio

For quick reference, copied from above (single results of other studies):
Molecule = PhoQ, residues 284 288 289 292 302 303 TVTVVA; target = PhoP, residues 12 14 15 18 19 DLLYY (Escherichia coli, UniProt P23836); test = Sort-seq, item: YFP reporter; test system = E. coli; conditions = PhoQ-PhoP variant library, with: 10 µM Mg2+; scale = baseline: high Mg2+ state, higher = stronger signaling; measurement = fold induction; value = 0.834
Molecule = GGGAGUUCUACAGUCCGACGAUCGAUCCUCCCCGUUACCCCUAAAGUAGAACUUACCAAAAUUGUGUGCCUGCCACACAGUUUUAACAAUAUUAGAAGAAAAUGCUAAUGAAGUUACACUCAUUGUUUGGCAAACCAAAUAGUCAACAGAGGAUUGAGCAUCA; target = UNK zinc fingers 1-6, SBP tag; test = RNA Bind-n-Seq; test system = RNA, in vitro; conditions = 100 nM, RNA with constant flanks, vertebrate orthologous sites, ends assumed; scale = baseline: input RNA pool, higher = stronger binding; measurement = bound/input enrichment; value = 1.48 ratio
